Published values pooled from the literature.
Each line is one published result; not all experiments were run side by side. “And” joins repeats or separate records; there may be more than shown. ± marks the error that the study gave. In brackets after ≈: the same amount, converted by molar mass.
EPHX2: Bifunctional epoxide hydrolase 2 (EPHX2, Homo sapiens, UniProt P34913)
CES2: Cocaine esterase (CES2, Homo sapiens, UniProt O00748)
CHRM2: Muscarinic acetylcholine receptor M2 (CHRM2, Homo sapiens, UniProt P08172)
PGR: Progesterone receptor (PGR, Homo sapiens, UniProt P06401)
T1: miRNA, hairpin closed by GAAA loop (Homo sapiens); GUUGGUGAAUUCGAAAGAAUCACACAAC

With `CCCCOP(=O)(Cc1ccccc1)O[C@@H]1O[C@H](CO)[C@@H](O)[C@H](O)[C@H]1F` (mixture of isomers) the kinact/Ki was 122 M⁻¹ s⁻¹ (GBA1 (Homo sapiens, UniProt P04062); enzyme activity, irreversible inhibitor; pH 5.5, 37 °C, with: 2,4-dinitrophenyl beta-D-glucopyranoside).
`CC12CC3CC(C)(C1)CC(NC(=O)Nc1ccc(C(=O)N4CCCC(C(=O)NO)C4)cc1)(C3)C2` (stereo not shown) — result for “lipophilic ligand efficiency”: 6.87 (EPHX2).
`COc1ccc(NC(C)=O)c(C)n1` has a specific activity of < 1 pmol/min/µg (CES2; substrate; 50 µM, pH 8, 37 °C, enzyme purity 4%).
With `[3H]CC([3H])C(=O)NC1CN(CCCCC2CCN(CC(=O)N3c4ccccc4NC(=O)c4ccccc43)CC2)CCN(CCCOc2nsnc2C2=CCCN(C)C2)C1` (stereo not shown) the kon was 1.3e+06 M⁻¹ s⁻¹ (CHRM2; binding).
The reversal potential of `CC(C)(C)CCN1C[C@@H]2[C@@H](CNC(=O)c3cc(Cl)cc(Cl)c3)[C@@H]2C1.Cl` is reported as 62.2 ± 3.3 mV (CACNA1C (Oryctolagus cuniculus, UniProt P15381); whole-cell patch clamp; HEK-293T, transfected; 5 µM).
`COCCOC(=O)Nc1ccc2c(c1)c(Cc1ccc(C(=O)NS(=O)(=O)c3ccc(C(F)(F)F)cc3)cc1OC)cn2C`: IκB degradation “inhibited” (Tumor necrosis factor receptor superfamily member 1A (Homo sapiens, UniProt P19438); TNF-induced IκB degradation, inhibitor; HEK293 cells; 0.01 to 500 nM).
`Cc1cc(C(=O)CN2CCCC2=O)c(C)n1Cc1ccccc1` gave an Emax of 35% (S1PR2 (Homo sapiens, UniProt O95136); reporter gene, agonist).
`O=P(O)(O)O[C@@H]1[C@@H](O)[C@H](O)[C@H](O)[C@H](O)[C@H]1OP(=O)(O)O` — result for “maximal Ca2+ release”: 73 ± 7% (Itpr1 (Rattus norvegicus, UniProt P29994); DT40-IP3R1, permeabilized; baseline: ATP-dependent Ca2+ uptake).
`N=C(N)NCCC[C@H](NC(=O)[C@H](CC(=O)O)NC(=O)[C@@H]1CSCCC(=O)NCC(=O)N[C@@H](Cc2c[nH]cn2)C(=O)N[C@H](Cc2ccccc2)C(=O)N[C@@H](CCCNC(=N)N)C(=O)N[C@@H](Cc2c[nH]c3ccccc23)C(=O)N1)C(=O)N[C@@H](Cc1ccccc1)C(=O)NCC(N)=O` gave an activation of 100% (MC5R (Homo sapiens, UniProt P33032); cAMP accumulation, agonist; HEK293 expressing MC5R; 10 µM; baseline: MT-II).
For `CCCCCCCC(=O)Nc1ccc(OC)nc1`, the specific activity was 21 pmol/min/µg (CES2; substrate; 50 µM, pH 8, 37 °C, enzyme purity 4%).
`CCCCCCCCSc1nc2c([nH]1)c(=S)n(C)c(=S)n2C` gave a remaining activity of 97% (Nr3c1 (Rattus norvegicus, UniProt P06536); reporter gene, antagonist, MMTV-luciferase; T47D/A1-2; 10 µM, 24 h, with: 5 nM dexamethasone; baseline: maximal activity).
For `CCc1nc2cc3ccccc3cc2cc1C(=O)N1CCC[C@H]1C(=O)N[C@@H](C/C=C\C[C@H](NC(=O)[C@@H]1CCCN1C(=O)c1cc2cc3ccccc3cc2nc1CC)C(=O)N[C@@H](CCCCN)C(=O)NCCCN)C(=O)N[C@@H](CCCCN)C(=O)NCCCN`, the residence time was 801 s (CUG–CAG duplex RNA; SPR).
`CCc1c(Cl)cccc1N1CCN(C[C@@H](F)CCNC(=O)c2cc3ccccc3[nH]2)CC1` has an efficacy of ~55% and 55% (DRD3 (Homo sapiens, UniProt P35462); mitogenesis, agonist; CHO; baseline: dopamine and quinpirole).
For `O=S(=O)(NC1=NCCCCC1)c1ccc2sc(NS(=O)(=O)c3ccc4ccccc4c3)nc2c1`, binding read “binds” (Kelch-like ECH-associated protein 1 (Mus musculus, UniProt Q9Z2X8); ligand-detected NMR; 50 µM, protein 5 or 2.5 µM).
`Cc1ccc2ccc3ccc(C)nc3c2n1.Cc1ccc2ccc3ccc(C)nc3c2n1.O.[Cl-].[Cl-].[Cl-].[Yb+3]`: “number of binding sites” 1.09 (Albumin (ALB, Bos taurus, UniProt P02769); fluorescence quenching titration; concentration not given, 301 K).
`Cc1ncsc1-c1ccc(CNC(=O)[C@@H]2C[C@@H](O)CN2C(=O)[C@@H](NC(=O)COCCOCCOCCNC(=O)C[C@@H]2N=C(c3ccc(Cl)cc3)c3c(sc(C)c3C)-n3c(C)nnc32)C(C)(C)C)cc1` gave a ΔG of -22.2 ± 0.1 kcal/mol (BRD4/VHL, BD2; with elongins B/C (Homo sapiens, UniProt O60885+P40337); ITC; Brd4^BD2, ternary).
`CC(C)[C@H](NC(=O)[C@H](CCCCN)NC(=O)[C@H](C)NC(=O)[C@H](CCCCN)NC(=O)CNC(=O)[C@H](CS)NC(=O)[C@@H](NC(=O)[C@H](CCCCN)NC(=O)[C@@H](N)CO)[C@@H](C)O)C(=O)N[C@H](C(=O)NCC(=O)N[C@@H](CCCNC(=N)N)C(=O)N[C@@H](Cc1c[nH]c2ccccc12)C(=O)N[C@@H](CCCCN)C(=O)O)[C@@H](C)O` has a kon of 3930 ± 249 M⁻¹ s⁻¹ (TPM1/ACTA1, with F-actin (Oryctolagus cuniculus, UniProt P58772+P68135); binding, LSPR; pH 7.0, with: F-actin-tropomyosin filaments).
With `CS(=O)(=O)CCC1NC(=O)C(Cc2ccco2)NC(=O)C(CC2CC2)NC(=O)C=CC(=O)NC(C(N)=O)CCNC1=O` (stereo not shown) the enrichment factor was 1.4 (MAP2K6 (Homo sapiens, UniProt P52564); DNA-templated library selection; one selection round).
`O=C(Nc1cccc([C@@H]2C[C@H]2NC2CCC2)c1)c1ccccc1`: “relative N-formyl-FAD adduct” 6% (Lysine-specific histone demethylase 1A, with CoREST (KDM1A, Homo sapiens, UniProt O60341); inhibitor, LC-MS; baseline: total FAD species).
The Vmax of `CC(CCC(=O)SCCNC(=O)CCNC(=O)C(O)C(C)(C)CO)C1CCC2C3C(O)CC4CC(O)CCC4(C)C3CC(O)C12C` (stereo not shown) is reported as 1.53 ± 0.2 min⁻¹ (Pantetheinase (VNN1, Homo sapiens, UniProt O95497); hydrolysis, substrate, pantothenic acid by HPLC-HRMS; 15 min, 37 °C, with: VNN1 0.01 µM).
For `COc1ccccc1CNC(=O)CCn1c(=O)[nH]c2ccsc2c1=O`, the kon was 9530 M⁻¹ s⁻¹ (Heat shock protein 90, N-terminal domain (Plasmodium falciparum, UniProt Q8IC05); binding, SPR).
`CCCCOc1ccc(C(=O)OCC[N+]2(C)CC=CCC2)cc1` (stereo not shown) has a cooperativity factor of 0.0014 ± 0.0002 (CHRM2; antagonist, item: inositol phosphates; CHO co-expressing G15; with: carbachol).
For `NC[C@@H](C(=O)Nc1ccc(-c2cn[nH]c2)cc1)c1ccccc1`, the IC90 was 0.0816 µg/mL (≈ 0.266 µM) (MYLK4 (Homo sapiens, UniProt Q86YV6); cell-free assay, TR-FRET).
For `CC[C@H](C)[C@H](NC(=O)CNC(C)=O)C(=O)N[C@@H](CCCNC(=N)N)C(=O)N[C@@H](CCC(=O)O)C(=O)N[C@@H](C)C(=O)N[C@H](C(=O)N[C@@H](CC(C)C)C(=O)N[C@@H](CCCNC(=N)N)C(=O)N[C@@H](C)C(=O)N[C@@H](Cc1c[nH]c2ccccc12)C(=O)N[C@@H](CCC(=O)O)C(=O)N[C@@H](CCCNC(=N)N)C(=O)N[C@@H](CCCNC(=N)N)C(=O)N[C@@H](Cc1ccc(O)cc1)C(=O)NCC(N)=O)[C@@H](C)O`, the ΔH was -7.6 ± 0.1 kcal/mol (Antirepressor protein CarS (carS, Myxococcus xanthus, UniProt Q06911); ITC; pH 7.5, 25 °C).
Under probe labelling, `O[C@@H]1[C@@H](O)[C@H](O[C@@H]2OC[C@@H](O)[C@H](O)[C@H]2O)C[C@H]2O[C@@H]12` is recorded as “inhibited” (Probable endo-1,4-beta-xylanase C (xlnC, Aspergillus niger, UniProt C5J411); activity-based probe binding, competitive inhibitor, in-gel fluorescence; Aspergillus niger, xylan-induced secretome; concentration not given, band near 30 kDa, with: Cy5 xylobiose activity-based probe).
With `O=C(Nc1ccc(C(=O)Nc2ccc(C(=O)Nc3ccc(S(=O)(=O)O)c4cc(S(=O)(=O)O)cc(S(=O)(=O)O)c34)cc2)cc1)Nc1ccc(C(=O)Nc2ccc(C(=O)Nc3ccc(S(=O)(=O)O)c4cc(S(=O)(=O)O)cc(S(=O)(=O)O)c34)cc2)cc1` the Hill slope was 2.3 ± 0.4 (F11 (Homo sapiens, UniProt P03951); enzyme activity, inhibitor, FXIa chromogenic substrate hydrolysis; pH 7.4, 25–37 °C).
The current density of `CCCC[C@H](C)/C=C(C)/C=C/C(=O)O` is reported as 11.8 ± 1.2 pA/pF (TRPA1 (Homo sapiens, UniProt O75762); ion current, inhibitor, whole-cell patch clamp; HEK-293T; 5 µM, +50 mV, with: 100 µM AITC).
`CCSc1nc2c([nH]1)c(=S)n(C)c(=S)n2C` gave a remaining activity of 123% (PGR; reporter gene, antagonist, MMTV-luciferase; T47D/A1-2; 10 µM, 24 h, with: 5 nM progesterone; baseline: maximal activity).
`O=C(Nc1ccc(C(F)(F)F)nc1)N1CCC(Cc2cccc(Oc3ccc(C(F)(F)F)cn3)c2)CC1` gave a koff of 6 s⁻¹ (EPHX2).
The selectivity ratio of `N[C@@H](CCC(=O)N[C@@H](CS[Se]Cc1ccc(-c2cccc(C(O)c3ccc(Cl)c(Cl)c3)c2)cc1)C(=O)NCC(=O)O)C(=O)O` (stereo partly shown) is reported as > 20 fold (PTPN2 (Homo sapiens, UniProt P17706); baseline: IC50 PTPN2 over STEP).
For `Nc1ccc2[nH]c(-c3cccc(-c4nc5cc(N)ccc5[nH]4)c3)nc2c1`, the Kd was 29 µM (T1, miRNA, hairpin closed by GAAA loop (Homo sapiens); microscale thermophoresis).
`O=S1(=O)O[C@@H]2[C@H](CO)[C@@H](O)[C@H](O)[C@@H](O)[C@@H]2O1` has a kinact of 0.00025 s⁻¹ (GBA1 (Homo sapiens, UniProt P04062, R534H); enzyme activity, inhibitor; pH 5.2).
With `CCCCCCCCCCCCSc1nc2c([nH]1)c(=O)n(C)c(=S)n2C` the remaining activity was 87% (PGR; reporter gene, antagonist, MMTV-luciferase; T47D/A1-2; 10 µM, 24 h, with: 5 nM progesterone; baseline: maximal activity).
Under “lipophilic ligand efficiency”, `CC12CC3CC(C)(C1)CC(NC(=O)Nc1ccc(C(=O)N4CCCC(C(=O)O)C4)cc1)(C3)C2` (stereo not shown) is recorded as 6.22 (EPHX2).

Repeated from above:
For `NC[C@@H](C(=O)Nc1ccc(-c2cn[nH]c2)cc1)c1ccccc1`, the IC90 was 0.0816 µg/mL (≈ 0.266 µM) (MYLK4 (Homo sapiens, UniProt Q86YV6); cell-free assay, TR-FRET).
For `CC[C@H](C)[C@H](NC(=O)CNC(C)=O)C(=O)N[C@@H](CCCNC(=N)N)C(=O)N[C@@H](CCC(=O)O)C(=O)N[C@@H](C)C(=O)N[C@H](C(=O)N[C@@H](CC(C)C)C(=O)N[C@@H](CCCNC(=N)N)C(=O)N[C@@H](C)C(=O)N[C@@H](Cc1c[nH]c2ccccc12)C(=O)N[C@@H](CCC(=O)O)C(=O)N[C@@H](CCCNC(=N)N)C(=O)N[C@@H](CCCNC(=N)N)C(=O)N[C@@H](Cc1ccc(O)cc1)C(=O)NCC(N)=O)[C@@H](C)O`, the ΔH was -7.6 ± 0.1 kcal/mol (Antirepressor protein CarS (carS, Myxococcus xanthus, UniProt Q06911); ITC; pH 7.5, 25 °C).
Under probe labelling, `O[C@@H]1[C@@H](O)[C@H](O[C@@H]2OC[C@@H](O)[C@H](O)[C@H]2O)C[C@H]2O[C@@H]12` is recorded as “inhibited” (Probable endo-1,4-beta-xylanase C (xlnC, Aspergillus niger, UniProt C5J411); activity-based probe binding, competitive inhibitor, in-gel fluorescence; Aspergillus niger, xylan-induced secretome; concentration not given, band near 30 kDa, with: Cy5 xylobiose activity-based probe).
With `O=C(Nc1ccc(C(=O)Nc2ccc(C(=O)Nc3ccc(S(=O)(=O)O)c4cc(S(=O)(=O)O)cc(S(=O)(=O)O)c34)cc2)cc1)Nc1ccc(C(=O)Nc2ccc(C(=O)Nc3ccc(S(=O)(=O)O)c4cc(S(=O)(=O)O)cc(S(=O)(=O)O)c34)cc2)cc1` the Hill slope was 2.3 ± 0.4 (F11 (Homo sapiens, UniProt P03951); enzyme activity, inhibitor, FXIa chromogenic substrate hydrolysis; pH 7.4, 25–37 °C).
The current density of `CCCC[C@H](C)/C=C(C)/C=C/C(=O)O` is reported as 11.8 ± 1.2 pA/pF (TRPA1 (Homo sapiens, UniProt O75762); ion current, inhibitor, whole-cell patch clamp; HEK-293T; 5 µM, +50 mV, with: 100 µM AITC).
